# Results from different studies.
# Each line is one published result; not all experiments were run side by side. “And” joins repeats or separate records; there may be more than shown. ± gives the spread as reported.
# rep main protease: Replicase polyprotein 1ab, main protease (rep, Severe acute respiratory syndrome coronavirus 2, UniProt P0DTD1)
# Spike glycoprotein: Spike glycoprotein (Severe acute respiratory syndrome coronavirus 2, UniProt P0DTC2)
SMILES,target or system,test,system,conditions,scale,endpoint,result
O=C(O)CC[C@H]1CC[C@@](c2cc(F)ccc2F)(S(=O)(=O)c2ccc(Cl)cc2)CC1,rep main protease,"reporter gene (mKate2), inhibitor",,20 µM,,inhibition,-0.624%
Cn1cnc(Cn2c(=O)[nH]/c(=N\c3cc4cn(C)nc4cc3Cl)n(Cc3cc(F)c(F)cc3F)c2=O)n1,,,"human, moderate renal impairment","oral, 375 mg, decreased GFR TEAE, mild severity",,patients with adverse event,0%
O=C(Cn1ccnn1)NC[C@H](NC(=O)c1cncc2ccccc12)c1ccc2ccccc2c1,rep main protease,"enzyme activity, inhibitor",,"5 µM, run 2",,inhibition,12.5%
O=c1cc(-c2ccc(O)c(O)c2)oc2cc(O)cc(O)c12,Spike glycoprotein,"binding, BLI",,,,koff,0.017 s⁻¹
O=C(c1ccc(=O)[nH]c1)N1CCCC[C@H](C2CN(C(=O)c3cncc4[nH]ccc34)C2)C1,rep main protease,"enzyme activity, inhibitor",,5 µM,,inhibition,15.8%
Cc1ccc(-c2cccc(CN3CCCC(NC(=O)c4c(C)noc4C)C3)c2)cc1Cl (stereo not shown),SARS-CoV-2,"cytopathic effect, cell-based CPE",USA_WA1/2020,"round 1, 5-point dilution",,AC50,11.2 µM
CC(C)[C@H](NC(=O)c1ccc2ccccc2n1)C(=O)N[C@@H](CC(=O)O)C(=O)COc1c(F)cccc1F,rep main protease,"reporter gene (mKate2), inhibitor",,20 µM,,inhibition,0.509%
O=C(Nc1cccc(C(=O)Nc2ccc(S(=O)(=O)O)c3cc(S(=O)(=O)O)cc(S(=O)(=O)O)c23)c1)Nc1cccc(C(=O)Nc2ccc(S(=O)(=O)O)c3cc(S(=O)(=O)O)cc(S(=O)(=O)O)c23)c1,"Replicase polyprotein 1ab, nsp14 N7-methyltransferase (rep, Severe acute respiratory syndrome coronavirus 2, UniProt P0DTD1)","N7-methyltransferase activity, inhibitor, Py-FLINT",,,,Hill slope,1.27 ± 0.73
CC[C@H](C)[C@H](NC(=O)[C@H](CC(C)C)NC(=O)[C@H](Cc1c[nH]c2ccccc12)NC(=O)[C@H](CCC(N)=O)NC(=O)[C@@H](NC(=O)[C@H](Cc1ccccc1)NC(=O)[C@H](C)NC(=O)[C@H](CCCCNC(=O)COCCOCCNC(=O)COCCOCCNC(=O)CC[C@H](NC(=O)CCCCCCCCCCCCCCCCCCC(=O)O)C(=O)O)NC(=O)[C@H](CCC(N)=O)NC(=O)[C@H](C)NC(=O)[C@@H](NC(=O)[C@H](CCCCN)NC(=O)[C@H](CC(=O)O)NC(=O)[C@H](CC(C)C)NC(=O)C(C)(C)NC(=O)[C@@H](NC(=O)[C@H](CO)NC(=O)[C@H](Cc1ccc(O)cc1)NC(=O)[C@H](CC(=O)O)NC(=O)[C@H](CO)NC(=O)[C@@H](NC(=O)[C@H](Cc1ccccc1)NC(=O)[C@@H](NC(=O)CNC(=O)[C@H](CCC(=O)O)NC(=O)C(C)(C)NC(=O)[C@@H](N)Cc1ccc(O)cc1)[C@@H](C)O)[C@@H](C)O)[C@@H](C)CC)[C@@H](C)CC)C(C)C)C(=O)N[C@@H](C)C(=O)NCC(=O)NCC(=O)N1CCC[C@H]1C(=O)N[C@@H](CO)C(=O)N[C@@H](CO)C(=O)NCC(=O)N[C@@H](C)C(=O)N1CCC[C@H]1C(=O)N1CCC[C@H]1C(=O)N1CCC[C@H]1C(=O)N[C@@H](CO)C(N)=O,,item: treatment-emergent feeling hot,healthy subjects,"0.5 mg, multiple ascending dose",,subjects with adverse event,0%
Cc1ccncc1C(=O)N[C@@H](CNC(=O)C1=NOCC1)c1ccc2ccccc2c1,rep main protease,"enzyme activity, inhibitor",,"5 µM, run 2",,inhibition,13.8%
CN(Cc1cc(Br)cc(Br)c1N)C1CCCCC1,rep main protease,"reporter gene (mKate2), inhibitor",,20 µM,,inhibition,-0.476%
Cc1ccc(C(C)(C)C(=O)NC[C@H](NC(=O)c2cccnc2)c2ccc3ccccc3c2)cc1,rep main protease,"enzyme activity, inhibitor",,"5 µM, mean of runs",,inhibition,10.6%
CC1=C(/C=C/C(C)=C/C=C/C(C)=C/C=C/C=C(C)/C=C/C=C(C)/C=C/C2=C(C)CCCC2(C)C)C(C)(C)CCC1,Spike glycoprotein,"binding, BLI",,,,koff,0.0376 s⁻¹
Nc1ncnc2c([C@@H]3N[C@H](CO)[C@@H](O)[C@H]3O)c[nH]c12,Marburg virus,viral RNA in cell lysate,"HeLa, Musoke","100 µM, 12 h",,inhibition,91.7%
Cc1cc(OC2CCN(Cc3ccc(S(=O)(=O)F)cc3)CC2)cc(N)n1,"cya (Bacillus anthracis, UniProt P40136)",,,,,kinact,0.000333 s⁻¹
CCN(CC)Cc1cc(Nc2ccnc3cc(Cl)ccc23)ccc1O,SARS-CoV-2,"cytopathic effect, cell-based CPE",USA_WA1/2020,"round 2, 5-point dilution",,AC50,5.62 µM
C=C(C)[C@@H]1CC[C@]2(C(=O)Nc3ccc4ccccc4c3)CC[C@]3(C)[C@H](CC[C@@H]4[C@@]5(C)CC[C@H](O[C@@H]6O[C@H](CO)[C@@H](O[C@@H]7O[C@@H](C)[C@H](O)[C@@H](O)[C@H]7O)[C@H](O)[C@H]6O[C@@H]6O[C@@H](C)[C@H](O)[C@@H](O)[C@H]6O)C(C)(C)[C@@H]5CC[C@]43C)[C@@H]12,"Spike glycoprotein, HR1/HR2 six-helix bundle (Severe acute respiratory syndrome coronavirus 2, UniProt P0DTC2)",circular dichroism,,20 µM,,six-helix bundle formation inhibition,inactive
CCCN1CCN(c2ccc(C(=O)NC3(C(=O)NCC#N)CCCCC3)cc2)CC1,rep main protease,"reporter gene (mKate2), inhibitor",,20 µM,,inhibition,-0.576%
CCc1c(C(=O)C(N)=O)c2c(OCC(=O)O)cccc2n1Cc1ccccc1,Daboia russelii venom phospholipase A2,"enzyme activity, inhibitor",GA population,"0.01 µM, together with: NOB substrate",baseline: venom alone,remaining activity,94% and 86%

# Repeated from above:
SMILES,target or system,test,system,conditions,scale,endpoint,result
CN(Cc1cc(Br)cc(Br)c1N)C1CCCCC1,rep main protease,"reporter gene (mKate2), inhibitor",,20 µM,,inhibition,-0.476%
